{"data": "Assay results pooled from the literature", "note": "Numbered parts are unrelated; each lists some results of a single study."}
{"data": "Set 1", "target": "Fragile X messenger ribonucleoprotein 1, C-terminal low-complexity region (Fmr1, Mus musculus, UniProt P35922)", "method": "RNA Bind-n-Seq", "molecule type": "RNA", "matrix": "in vitro", "tested at": "200 nM", "notes": "whole 134-nt RNA, ends assumed", "added": "150 mM LiCl", "reference": "input library", "reading": "higher = stronger binding", "all molecules": "7-deaza-guanosine replaces G", "constant ends, left off below": "GGGAGUUCUACAGUCCGACGAUC … UGGAAUUCUCGGGUGUCAAGG"}
{"Strand": "UGGGAGGUGGAUUUUGUUUAUUUUUUUAGCUGAUUUCCAGGGGUGGGAAUUUUUUUUUAAUAUGUGUCAUGAAUAAAGUUGUUUUUGAAA", "log2 enrichment": 0.281}
{"Strand": "UCAGUGUCUUACCCUGAAGAGAAAGUUGUAGGUUGGCUGUUGAAAUUCAUUCCUUAGAUAUGAUCAGUUUGAUUGCCCGGCUUUAUUGCC", "log2 enrichment": -2.43}
{"Strand": "UGGCCCUGGUGGCAUCCGGGGAGGAAGAGGUGGCCUCAUGGAUCGUGGUGGUCCCGGUGGAAUGUUCAGAGGUGGCCGUGGUGGAGACAG", "log2 enrichment": 0.599}
{"Strand": "UCAAGUCCUGUGCUACACAUCGUAUGUACCGAAUCGGUUUUUUUGGAAAGGAGGAAAGUAUUAUGUUACGCCGUUCGGAUCUGCACUUCC", "log2 enrichment": -0.463}
{"Strand": "UUCACUCUUUGAAGGAACGUGGUACUUAGUUAGGGUGGAUGAAAAGCACAGAAGAACUUACGCUCGGCGUCCCACUCCAAAUGAUGACAC", "log2 enrichment": 0.623}
{"Strand": "CACAGACAACACGCACCCUCACAGACACAGAGGGAAGGGGUUGGGAUGGGGACAGGGUGCACAGCAGGGCGGGGUAGGACCCCAGCCCCU", "log2 enrichment": -1.33}
{"Strand": "CUGUGCUACACAUCGUAUGUACCGAAUCGGUUUUUUUGGUUUUUUUGGGGUUUUUUUGGGGAAAGUAUUAUGUUACGCCGUUCGGAUCUG", "log2 enrichment": 0.784}
{"Strand": "CUGUGCUACACAUCGUAUGUACCGAAUCGGGGAAAAAAAGGGGAAAAAAAGGAAAAAAAGGGAAAGUAUUAUGUUACGCCGUUCGGAUCU", "log2 enrichment": 0.453}
{"data": "Set 2", "target": "Transcription factor Sp1 (SP1, Homo sapiens, UniProt P08047, residues 1-785, full length assumed)", "method": "protein-binding microarray", "molecule type": "double-stranded DNA, one strand shown", "matrix": "in vitro", "tested at": "not given", "notes": "k-mer, scored over probes, only values ≥0.25", "reading": "higher = stronger binding", "chain of UniProt P08047 (whole entry, looked up)": "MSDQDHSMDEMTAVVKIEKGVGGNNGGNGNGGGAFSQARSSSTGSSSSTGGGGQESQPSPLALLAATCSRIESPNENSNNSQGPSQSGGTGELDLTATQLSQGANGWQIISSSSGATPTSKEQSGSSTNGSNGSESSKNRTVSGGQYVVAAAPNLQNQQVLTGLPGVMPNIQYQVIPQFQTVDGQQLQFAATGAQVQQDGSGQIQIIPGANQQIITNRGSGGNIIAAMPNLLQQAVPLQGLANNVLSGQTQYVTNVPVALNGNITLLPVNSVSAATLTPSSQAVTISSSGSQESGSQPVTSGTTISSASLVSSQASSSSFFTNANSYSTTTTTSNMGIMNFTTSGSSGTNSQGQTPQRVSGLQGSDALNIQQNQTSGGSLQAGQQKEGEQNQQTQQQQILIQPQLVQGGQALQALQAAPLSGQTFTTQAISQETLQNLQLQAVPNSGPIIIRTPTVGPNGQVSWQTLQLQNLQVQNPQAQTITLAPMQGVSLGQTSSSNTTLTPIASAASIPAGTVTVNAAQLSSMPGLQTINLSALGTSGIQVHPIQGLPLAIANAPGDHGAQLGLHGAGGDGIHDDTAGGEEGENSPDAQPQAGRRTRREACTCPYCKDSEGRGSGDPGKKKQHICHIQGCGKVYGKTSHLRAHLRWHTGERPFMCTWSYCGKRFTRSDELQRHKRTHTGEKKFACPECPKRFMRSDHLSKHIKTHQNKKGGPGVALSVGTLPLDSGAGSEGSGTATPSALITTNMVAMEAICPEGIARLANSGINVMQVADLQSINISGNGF"}
{"Strand": "CCCGCACC", "E-score": 0.259}
{"Strand": "CCCCTCCC", "E-score": 0.489}
{"Strand": "CCCTCCTC", "E-score": 0.298}
{"Strand": "CCACCCCC", "E-score": 0.427}
{"Strand": "ATATTATG", "E-score": 0.26}
{"Strand": "ATAAATTA", "E-score": 0.317}
{"Strand": "CACCCCTC", "E-score": 0.405}
{"Strand": "CACGCCCC", "E-score": 0.492}
{"Strand": "ATATCCCC", "E-score": 0.304}
{"Strand": "AGGGGCAA", "E-score": 0.313}
{"Strand": "CCCTCCGC", "E-score": 0.283}
{"Strand": "CGCCCCTA", "E-score": 0.455}
{"Strand": "AGACAGAT", "E-score": 0.256}
{"Strand": "ATCACCCC", "E-score": 0.314}
{"Strand": "CCCACCTC", "E-score": 0.303}
{"Strand": "GGAGGGTA", "E-score": 0.332}
{"Strand": "CGATATTA", "E-score": 0.278}
{"Strand": "CTCCCACA", "E-score": 0.277}
{"Strand": "CCCACTCC", "E-score": 0.28}
{"Strand": "ACATGTAC", "E-score": 0.265}
{"data": "Set 3", "target": "Interferon regulatory factor 7, full length, phosphomimetic (IRF7, Homo sapiens, UniProt Q92985, residues 1-503, S101K/S471D/S472D/S475D/S476D/S477D/S483D/S484D/S487D)", "method": "protein-binding microarray", "molecule type": "double-stranded DNA, one strand shown", "matrix": "in vitro", "tested at": "250 nM", "notes": "60-bp whole probe", "added": "salmon DNA 0.4 mg/ml", "reference": "random background probes", "reading": "higher = stronger binding", "constant ends, left off below": "GCCTAGCAC … GTCTTGATTCGCTTGACGCTGCTG", "chain of UniProt Q92985 (whole entry, unmodified, looked up)": "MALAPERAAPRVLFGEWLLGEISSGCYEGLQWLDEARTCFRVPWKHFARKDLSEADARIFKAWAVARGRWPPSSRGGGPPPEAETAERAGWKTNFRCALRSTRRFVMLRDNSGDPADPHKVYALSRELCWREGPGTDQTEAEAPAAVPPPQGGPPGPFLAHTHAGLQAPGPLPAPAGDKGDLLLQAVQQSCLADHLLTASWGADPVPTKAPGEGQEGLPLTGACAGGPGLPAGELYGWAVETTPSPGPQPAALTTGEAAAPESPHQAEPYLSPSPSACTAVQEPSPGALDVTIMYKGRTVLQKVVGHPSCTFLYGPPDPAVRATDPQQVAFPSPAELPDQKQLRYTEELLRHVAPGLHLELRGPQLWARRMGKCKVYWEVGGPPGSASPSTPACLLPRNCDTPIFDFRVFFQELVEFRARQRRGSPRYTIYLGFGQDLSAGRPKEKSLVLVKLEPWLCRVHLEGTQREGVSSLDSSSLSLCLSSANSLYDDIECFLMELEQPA"}
{"Strand": "CGAGTTTCTATTTTCTGAATGTGCTAG", "log fluorescence [z-score]": 9.91}
{"Strand": "GACGGTTTCGACACTGGGGAGGTGCTA", "log fluorescence [z-score]": 3.69}
{"Strand": "GACGGACTGGACAATGGGGACGTGCTA", "log fluorescence [z-score]": -0.768}
{"Strand": "TTAGATATCGGGTTTCGATTTGTGCTA", "log fluorescence [z-score]": 11.3}
{"Strand": "TCAACCATCATCCTCACACTGTGCTAG", "log fluorescence [z-score]": 0.243}
{"Strand": "GACGGACTGCTAATCCTGACGTGCTAG", "log fluorescence [z-score]": -0.606}
{"Strand": "TTAGTACTGCTTATCCTTTAGTGCTAG", "log fluorescence [z-score]": 0.766}
{"Strand": "TTAGATTTCAATTTCGATTAGTGCTAG", "log fluorescence [z-score]": 2.15}
{"Strand": "TTAGGTCTCCTTATACTTTAGTGCTAG", "log fluorescence [z-score]": 0.403}
{"Strand": "TTAGATATCAGACTGGCTTAGTGCTAG", "log fluorescence [z-score]": -0.149}
{"Strand": "TCTGTAATTCTTAGAACAGCGTGCTAG", "log fluorescence [z-score]": -0.154}
{"Strand": "TTAGGTATCGCTTTCGGTTAGTGCTAG", "log fluorescence [z-score]": 5.03}
{"Strand": "GACGGTTTCCTTTTCTTGACGTGCTAG", "log fluorescence [z-score]": 6.16}
{"Strand": "TTAGGTCTCGGACTGGGCTAGTGCTAG", "log fluorescence [z-score]": 0.0474}
{"Strand": "GACGGCTTCGGTCTCGGGACGTGCTAG", "log fluorescence [z-score]": -0.0482}
{"Strand": "TCATTTTTTTCTATATGACTGTGCTAG", "log fluorescence [z-score]": 1.65}
{"Strand": "GACGGTATCGGGTTTCGGGTCGTGCTA", "log fluorescence [z-score]": 6.12}
{"Strand": "TTAGGTTTCGACTTTCGGTTTGTGCTA", "log fluorescence [z-score]": 12.1}
{"Strand": "GACGGTCTCGGATTGGGGACGTGCTAG", "log fluorescence [z-score]": 2.47}
{"data": "Set 4", "target": "RNA binding protein fox-1 homolog 2, RRM domain, GST-SBP tag (RBFOX2, Homo sapiens, UniProt O43251-10, residues 100-194)", "method": "RNA Bind-n-Seq", "molecule type": "RNA", "matrix": "in vitro", "tested at": "365 nM", "notes": "natural RNA segment, single round, ends assumed", "reference": "no-protein control", "reading": "higher = stronger binding", "constant ends, left off below": "GGGAGUUCUACAGUCCGACGAUC … UGGAAUUCUCGGGUGCCAA", "Residues (chain)": "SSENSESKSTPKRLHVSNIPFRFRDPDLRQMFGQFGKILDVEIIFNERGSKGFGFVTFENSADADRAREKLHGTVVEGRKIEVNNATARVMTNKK"}
{"Strand": "GGAAUUACUCUUUUAGAGAAAAACACUGGAAAUUUUGCUAACACAAUACUUAAAAGUAUAUAGUUGGUGGUUAAGCUUAUGAGAUGAGUGAAUGGAAAACCUGGGAGAGG", "RBNS enrichment (R)": 1.02}
{"Strand": "ACGGAGAGCUCCCUUCUGCAGGACUAAGCAGAUGCGUGUCUUUCCCACCCGUGACUGUAAGAAUGCUCUCUGGGAGGACUUCCACCGGGGCAGAGCAGGCUGCCCAGCCG", "RBNS enrichment (R)": 1.19}
{"Strand": "GGCAAGGGCAGGAUGAGGCUGCACCGCUGGGAAGAGUCUAUCUAAGCUCUUGGCUUGGAGUCCCGUGUCGUCUCCACCCAGAGGAAGUUCUCCAGAGUUCACCUUUCCCU", "RBNS enrichment (R)": 0.31}
{"Strand": "AGAACUUUGUUUCAGCGUGACUCUCCCACCCUGCCCCAAGUUGAAUGUUCCCUUCACAUUGAAUCAAAUACAAAUCAGCACAGAUACUGUUUCCAGUUUUUAAAAAUGUA", "RBNS enrichment (R)": 0.81}
{"Strand": "GAAAGUUUCUUUUUCUUUUGUGUUAGUCUUGCAAGUUUGUCUACCAGUAAAAGAGCAAAGUUUCCUUCCUUUCUUGUUUUCUUUUUAUUUUUUCUUUUGUUCCCUCUUCC", "RBNS enrichment (R)": 24.2}
{"Strand": "ACCUCACUACUACAUCUGUGAUGACUGGUUGUUCAAACACAAUGGAGUGUGUAAGGUAUAUGUUUUAUAAUUCAUAACCAUAGCCUCGAUCAUCAAGAAAUACUUUCGAA", "RBNS enrichment (R)": 0.328}
{"Strand": "UUUGUACAGAAUGCGCUAUAAAUUAUACCUUUAAGAAUGUGGGGCCUUUUUUAUGAUUUUGUAAGUUCCCAUAAGUUGUGUGCACGAGGUUCUGAGAGUGCCCGCAGGCU", "RBNS enrichment (R)": 4.77}
{"Strand": "GGAGGCUACUGGAUGUAAGCUGUGCAGACCUGCUUCCCUCAGCAUUAAAUGUCUUCUCUUGAGCUGCAACUCCCAACUGACUCUGUGUAACCAAGGCUAGCUCUUUGUGU", "RBNS enrichment (R)": 0.67}
{"data": "Set 5", "target": "Histone acetyltransferase KAT6A, both winged helices, GST fusion (KAT6A, Homo sapiens, UniProt Q92794, residues 1-181)", "method": "protein binding microarray", "molecule type": "double-stranded DNA, one strand shown", "matrix": "in vitro", "tested at": "not given", "notes": "8-mer, flanks averaged, mean of 2 arrays, mostly near background", "reference": "not given", "reading": "higher = stronger binding", "Residues (chain)": "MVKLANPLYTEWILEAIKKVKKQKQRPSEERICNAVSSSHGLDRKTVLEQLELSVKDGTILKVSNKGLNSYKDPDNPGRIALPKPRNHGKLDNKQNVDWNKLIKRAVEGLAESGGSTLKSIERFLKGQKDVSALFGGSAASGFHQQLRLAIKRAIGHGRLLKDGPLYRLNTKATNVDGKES"}
{"Strand": "ACTAAGGC", "E-score": -0.0666}
{"Strand": "CTTAGAAG", "E-score": -0.0405}
{"Strand": "AAACACCC", "E-score": 0.107}
{"Strand": "CCCTCTCA", "E-score": -0.284}
{"Strand": "CCCTTCAA", "E-score": -0.142}
{"Strand": "CGCTAGCC", "E-score": 0.0943}
{"Strand": "ACTTTGAT", "E-score": -0.193}
{"Strand": "CACGTCAG", "E-score": -0.151}
{"Strand": "ATACAGCA", "E-score": 0.0247}
{"Strand": "AGAGTCGA", "E-score": -0.137}
{"Strand": "AATGCACC", "E-score": -0.173}
{"Strand": "ACTAGCGG", "E-score": 0.286}
{"Strand": "AATTCTAG", "E-score": -0.161}
{"Strand": "CGATATTA", "E-score": -0.00327}
{"Strand": "AGAACTGG", "E-score": -0.148}
{"Strand": "GACTTTGC", "E-score": 0.0779}
{"Strand": "CTGAGCAA", "E-score": -0.0805}
{"Strand": "CACCACGC", "E-score": 0.0685}
{"Strand": "GCTTCAAC", "E-score": -0.0133}
{"note": "Repeated from above (set 3):"}
{"Strand": "TTAGGTCTCGGACTGGGCTAGTGCTAG", "log fluorescence [z-score]": 0.0474}
{"Strand": "TTAGATATCGGGTTTCGATTTGTGCTA", "log fluorescence [z-score]": 11.3}
{"Strand": "TTAGTACTGCTTATCCTTTAGTGCTAG", "log fluorescence [z-score]": 0.766}
{"Strand": "TTAGGTCTCCTTATACTTTAGTGCTAG", "log fluorescence [z-score]": 0.403}
{"Strand": "TTAGGTATCGCTTTCGGTTAGTGCTAG", "log fluorescence [z-score]": 5.03}
{"Strand": "GACGGACTGGACAATGGGGACGTGCTA", "log fluorescence [z-score]": -0.768}
{"Strand": "CGAGTTTCTATTTTCTGAATGTGCTAG", "log fluorescence [z-score]": 9.91}
{"Strand": "GACGGTTTCCTTTTCTTGACGTGCTAG", "log fluorescence [z-score]": 6.16}
{"Strand": "TTAGATTTCAATTTCGATTAGTGCTAG", "log fluorescence [z-score]": 2.15}
{"Strand": "GACGGTTTCGACACTGGGGAGGTGCTA", "log fluorescence [z-score]": 3.69}
